Results pooled from the literature.
Parts stem from different laboratories: compare values within a part only. Substitutions count along the parent as printed.

Sample 1 — target: CCNA2, cyclin fold, Cln2 fusion (human); technique: yeast growth competition, sequencing; matrix: yeast; setting: strong parent motif; reference: not given; reading: higher = stronger binding; endpoint: normalised enrichment score
Starting sequence: CDKN1B docking peptide (human); PSACRNLFGPVDH; partner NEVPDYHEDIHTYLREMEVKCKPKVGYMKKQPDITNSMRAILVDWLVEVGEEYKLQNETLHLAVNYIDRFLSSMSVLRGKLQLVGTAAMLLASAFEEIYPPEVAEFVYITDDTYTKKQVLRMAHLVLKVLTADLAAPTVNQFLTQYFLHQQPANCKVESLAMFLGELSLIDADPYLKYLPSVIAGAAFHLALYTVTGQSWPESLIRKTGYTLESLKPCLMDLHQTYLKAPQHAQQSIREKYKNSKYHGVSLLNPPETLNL
G9L: 2.16
H13D: 4.02
A3P: 1.52
H13A: 4.31

Sample 2 — technique: RNA Bind-n-Seq; form: RNA; matrix: in vitro; concentration: 365 nM; reference: no-protein control; reading: higher = stronger binding; endpoint: RBNS enrichment (R)
Target: RNA binding protein fox-1 homolog 2, RRM domain, GST-SBP tag (RBFOX2, Homo sapiens, UniProt O43251-10, residues 100-194)
Setting: natural RNA segment, single round, ends assumed
Constant ends, left off below: GGGAGUUCUACAGUCCGACGAUC … UGGAAUUCUCGGGUGCCAA
Construct (chain): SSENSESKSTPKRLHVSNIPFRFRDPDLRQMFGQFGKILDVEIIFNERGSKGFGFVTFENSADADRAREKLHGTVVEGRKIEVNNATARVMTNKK
UCCAGCUGUCCCUGUGAGUUAUCCUGGACAUUUCGAUGGUUUUUGGUAAGGCCAAACUCUGAUAAGCAAAACAGAGAAUACUGACGUAUACUUAACCAUAUGUGUAACUG: 0.197
CAUCCCUAGCUCCUGCAAGAGAAAGUCCAGGCUUUGGGAGCAGAUGGCAGAGGGAGGGAGUAAAGAAAGAGCCAAAAAUGAUGAUCCACAGCUUAUAGUAGCAGUUAAAC: 0.374
GACUUUCCCAUUCUCAGCUGAGGUUGGAAGAAACCACUCUGGGUGUCCUUUCUGGGACCUGUCUGCAUAACCCUCCCCAUCCUGGCUCUCCUGCAUCUUCUUACCCUUUA: 0.903
CUCUCGCUGUCCUCACUUUGCAGGGGCUCCUCCUCAACAUUUGCAUGCACCUGCAAGAAUUGGGAAGAAAGAGCAUUUAUUAGGCACUGUAGCAAUUUGCAUUUUAAAAU: 2.42
CCGCCCCGUGCUGAGCCUUCUGCUGAGGUCCUUGCGUGGAGCACACUCAUUCCUCCAAGCCCUUGCGCUCCCGUUUCUCUCUCUCUCCGUCCACGUUCCAGCCGAGUCAC: 0.659

Sample 3 — technique: protein-binding microarray; form: double-stranded DNA, one strand shown; matrix: in vitro; concentration: 940 nM top; setting: 60-bp whole probe; added: salmon DNA 0.4 mg/ml; reference: random background probes; reading: higher = stronger binding; endpoint: fitted relative affinity; constant ends, left off below: GCCTAGCAC … GTCTTGATTCGCTTGACGCTGCTG
Target: Interferon regulatory factor 5, full length, phosphomimetic (IRF5, Homo sapiens, UniProt Q13568-2, residues 1-514, S451D/S453D/S456D/S462D)
GACGACTTCGGGACTGGAGACGTGCTA: -0.291 z-score
TTAGGTATCGGACTGTGTTAGTGCTAG: 3.74 z-score
GACGGTATCGGTTTCGGGACGTGCTAG: 10.3 z-score
TCTGATTTTGCTTTCATTTAGTGCTAG: 1.64 z-score
TTAGATCTCAGACGGGATTAGTGCTAG: -0.35 z-score
GACGATCTCAGACTGGAGGCGTGCTAG: -0.534 z-score
TTAGGTTTGCTTTCCCTTTAGTGCTAG: 0.73 z-score

Single results of other studies
PhoQ, residues 284 288 289 292 302 303 NSMLDC — fold induction (PhoP, residues 12 14 15 18 19 NQAHL (Escherichia coli, UniProt P23836); Sort-seq, item: YFP reporter; E. coli; PhoQ-PhoP variant library, added: 10 µM Mg2+; reference: high Mg2+ state, higher = stronger signaling): 4.44

Some of these lines once more (single results of other studies):
PhoQ, residues 284 288 289 292 302 303 NSMLDC — fold induction (PhoP, residues 12 14 15 18 19 NQAHL (Escherichia coli, UniProt P23836); Sort-seq, item: YFP reporter; E. coli; PhoQ-PhoP variant library, added: 10 µM Mg2+; reference: high Mg2+ state, higher = stronger signaling): 4.44
